Results gathered from unrelated publications.
Parts stem from different laboratories: compare values within a part only. Changes are numbered by the printed parent chain.

Block 1
Target: CCND1, cyclin fold, Cln2 fusion (human)
Technique: yeast growth competition, sequencing
Sample: yeast
Setting: weak parent motif
Baseline: not given
Reading: higher = stronger binding
Parent: WEE1 docking peptide (human); HKTFRKLRLFDTP; partner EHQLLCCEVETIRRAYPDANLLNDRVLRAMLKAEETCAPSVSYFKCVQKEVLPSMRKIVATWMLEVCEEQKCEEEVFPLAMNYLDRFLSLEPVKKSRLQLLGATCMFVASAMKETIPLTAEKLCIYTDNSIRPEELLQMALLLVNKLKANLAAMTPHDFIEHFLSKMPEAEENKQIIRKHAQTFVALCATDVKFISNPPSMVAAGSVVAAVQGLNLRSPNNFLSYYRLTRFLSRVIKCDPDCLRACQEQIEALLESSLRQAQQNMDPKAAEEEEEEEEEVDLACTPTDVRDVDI
`HKTFRKLRLFMTP [D11M]` — result for “normalised enrichment score”: 0.22.
`HKTFRKLRLGDTP [F10G]` — result for “normalised enrichment score”: -0.934.
For `HKTFRKLRLFDMP [T12M]`, “normalised enrichment score” read 0.481.
`HKTFRKLRLFPTP [D11P]`: “normalised enrichment score” 0.504.
`HKTGRKLRLFDTP [F4G]`: “normalised enrichment score” 0.207.
For `HKWFRKLRLFDTP [T3W]`, “normalised enrichment score” read 0.51.
`HKTFRCLRLFDTP [K6C]` — result for “normalised enrichment score”: 0.348.
Under “normalised enrichment score”, `HKTFRKLRLFDTV [P13V]` is recorded as 0.345.
Under “normalised enrichment score”, `HKTFRKLRPFDTP [L9P]` is recorded as -0.382.
`HKTFRPLRLFDTP [K6P]`: “normalised enrichment score” 0.598.
`HKTFRHLRLFDTP [K6H]`: “normalised enrichment score” -0.151.

Block 2
Target: RING finger protein unkempt homolog, zinc fingers 1-6, GST-SBP tag (UNK, Homo sapiens, UniProt Q9C0B0, residues 30-357)
UniProt Q9C0B0, sequence (30-357, looked up): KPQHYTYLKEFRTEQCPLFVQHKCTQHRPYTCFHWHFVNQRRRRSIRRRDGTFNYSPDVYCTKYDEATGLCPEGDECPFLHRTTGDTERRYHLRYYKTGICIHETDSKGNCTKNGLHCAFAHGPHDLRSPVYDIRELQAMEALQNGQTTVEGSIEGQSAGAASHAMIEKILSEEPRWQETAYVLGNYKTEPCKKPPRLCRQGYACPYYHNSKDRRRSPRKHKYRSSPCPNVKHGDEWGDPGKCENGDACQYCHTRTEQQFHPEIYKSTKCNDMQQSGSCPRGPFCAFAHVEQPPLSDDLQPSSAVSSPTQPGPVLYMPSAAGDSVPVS
Technique: RNA Bind-n-Seq
Form: RNA
Sample: in vitro
Concentration: not given
Setting: RNA with constant flanks, human and mouse sites, ends assumed
Baseline: input RNA pool
Reading: higher = stronger binding
The bound/input enrichment of `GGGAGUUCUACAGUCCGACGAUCCCCUCCGCGGCGCUUUCUCCUCUUGGCGGGGUUGGGAGUCAUGUUUGGUUUUCUCAUUCUUGUUUUUGUUUUGUGUGGUGGGUUCACUGACCGGCGGUGUCCUCUGGCGGUCACCUCUUUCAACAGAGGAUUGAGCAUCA` is reported as 0.553 ratio.
For `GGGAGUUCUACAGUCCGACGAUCGGUUCCUUUGGGAGACUUCGACUUGUUGGCGACCUGAUGGCCAAAAGAAAGGAAGAAAAUUUUUCCUCUCCUAAAAAUGCCAAAAGGCCAAGACAAGAAGAAUUGGAGGAUUUUGAUAAACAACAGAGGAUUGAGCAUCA`, the bound/input enrichment was 0.171 ratio.
`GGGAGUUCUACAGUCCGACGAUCACUCGUUUGCUUUUUUUCUUUUUUUAACUAAGAGCUGUGUUCCUGGCUAGAGAAUUUCAUUAUAGGGAGCUGAGCCCCGGCCCAUAUGGGUGUACUGCUCGGAGACUGGGAGCAAGGGGUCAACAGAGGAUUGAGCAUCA` gave a bound/input enrichment of 1.46 ratio.
With `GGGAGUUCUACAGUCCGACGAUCUCAUCAAUUGCAACUUCUUCAGUGAAAGGUCUUUCAACUACAGGAAACUCGUCUCUUAAUAGUACAUCCAACACUAAAGUGUCAGCGAUACCUACCAAUAUGGCUGCCAAGAAAACAUCUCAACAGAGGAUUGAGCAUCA` the bound/input enrichment was 0.152 ratio.
`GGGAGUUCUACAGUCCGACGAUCUUAAUCCCCUUUACUGCUCCCCCACUUCUCAUGGUAAUAACAAAGUCUUAUAUCCCCGUCCUAGCUUUCACUCAGAUGGCUUAUGGAGCCGGUUUCCUAGCUUUCUUGGGAGGGAUCAGACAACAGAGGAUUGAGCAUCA` has a bound/input enrichment of 0.375 ratio.
For `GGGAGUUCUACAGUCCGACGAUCUUGCUCAUCUAACUUCAUUGUACCCAGCGUCAUUUUGACAUGUCAUUUCCUAUCUCCCAUUUGCCUUCGGUCCUCAAUGCAUGUCUUUGAGUGACUUCUUAUCUGAAAUUUUGCUACUGGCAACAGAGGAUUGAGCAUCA`, the bound/input enrichment was 0.235 ratio.
For `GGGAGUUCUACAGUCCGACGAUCUGGUGUUUUCCCAAGGCUCCCUUCCCAAGCUCAGUGCAAACCUCUCACUCCCAAGUUUCUUUGAGGCCACUUGCCCCCAAGCACUUCACAAUAGACCCUCGAGGGCUUGUGUCCAUUUGGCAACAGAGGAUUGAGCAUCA`, the bound/input enrichment was 0.438 ratio.
`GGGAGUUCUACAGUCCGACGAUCGCUGUGGCCAGAGGCUGUGCACUGCAGUGUGCAAUUCUUUCUCCGGCAUUUAAAGUUAGAGAGUUCUCUGUCACCGAUGCAGUUCCUUUUCCAAUAUCUCUGGUCUGGAACCACGACUCGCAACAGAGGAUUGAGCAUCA` has a bound/input enrichment of 0.132 ratio.

Block 3
Target: Sal-like protein 4, full length isoform A (SALL4, Homo sapiens, UniProt Q9UJQ4, residues 1-1053)
UniProt Q9UJQ4, sequence (whole entry, looked up): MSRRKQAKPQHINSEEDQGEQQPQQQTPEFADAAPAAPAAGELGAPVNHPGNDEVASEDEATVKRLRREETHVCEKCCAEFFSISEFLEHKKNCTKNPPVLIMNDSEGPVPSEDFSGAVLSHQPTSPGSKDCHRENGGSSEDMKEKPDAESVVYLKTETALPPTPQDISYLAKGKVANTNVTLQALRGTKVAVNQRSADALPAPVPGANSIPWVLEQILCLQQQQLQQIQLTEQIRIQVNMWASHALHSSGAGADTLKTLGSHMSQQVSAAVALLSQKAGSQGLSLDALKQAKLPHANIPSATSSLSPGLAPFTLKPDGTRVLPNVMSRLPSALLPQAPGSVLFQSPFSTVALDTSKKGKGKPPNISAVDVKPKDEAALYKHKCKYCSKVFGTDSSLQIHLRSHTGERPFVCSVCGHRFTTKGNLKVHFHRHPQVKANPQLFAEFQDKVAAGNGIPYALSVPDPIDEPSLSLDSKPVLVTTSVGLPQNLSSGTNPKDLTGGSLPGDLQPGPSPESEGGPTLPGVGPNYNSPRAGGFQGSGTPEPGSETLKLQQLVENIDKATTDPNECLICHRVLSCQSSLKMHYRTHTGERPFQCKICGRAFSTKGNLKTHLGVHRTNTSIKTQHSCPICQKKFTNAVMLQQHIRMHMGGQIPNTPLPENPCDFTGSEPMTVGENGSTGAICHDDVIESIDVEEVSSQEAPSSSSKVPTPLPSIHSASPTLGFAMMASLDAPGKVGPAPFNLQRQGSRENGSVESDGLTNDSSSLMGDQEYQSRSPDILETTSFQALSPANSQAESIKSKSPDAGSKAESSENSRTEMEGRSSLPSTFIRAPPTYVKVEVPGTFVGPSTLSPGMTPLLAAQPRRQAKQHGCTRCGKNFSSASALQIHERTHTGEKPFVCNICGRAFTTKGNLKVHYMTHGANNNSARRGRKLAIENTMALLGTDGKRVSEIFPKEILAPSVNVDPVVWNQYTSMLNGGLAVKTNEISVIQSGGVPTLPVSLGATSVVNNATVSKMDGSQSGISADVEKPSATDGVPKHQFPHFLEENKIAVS
Technique: universal PBM
Form: double-stranded DNA, one strand shown
Sample: in vitro
Concentration: 600 nM
Setting: 8-mer, flanks averaged, mean of replicates
Reading: higher = stronger binding
The E-score of `ACTCACCA` is reported as 0.0534.
With `AATTGCCG` the E-score was 0.00356.
`GTACTCCA` gave an E-score of -0.192.
The E-score of `AAGTGATC` is reported as 0.0977.
`ACAGCTAT` has an E-score of 0.105.
`GATCCGAA` gave an E-score of -0.074.
`ACCGTTTA` has an E-score of 0.0808.
`ATCGTGTA` has an E-score of 0.0268.
For `ACTAGTAA`, the E-score was 0.248.
`ACGTACTA` gave an E-score of 0.103.
The E-score of `ACAATACG` is reported as 0.0325.
`CTAGGGAC` gave an E-score of -0.101.
`AAAGAATA` has an E-score of 0.349.
With `GGATGTTA` the E-score was -0.014.
With `GATTGGAA` the E-score was -0.0261.

Single results of other studies
`PhoQ, residues 284 288 289 292 302 303 NLGVHL` gave a fold induction of 5.93 (PhoP, residues 12 14 15 18 19 TQAIL (Escherichia coli, UniProt P23836); Sort-seq, measured: YFP reporter; E. coli; PhoQ-PhoP variant library, with: 10 µM Mg2+; baseline: high Mg2+ state, higher = stronger signaling).

For quick reference, copied from above (block 2):
`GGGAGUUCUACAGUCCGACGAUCGCUGUGGCCAGAGGCUGUGCACUGCAGUGUGCAAUUCUUUCUCCGGCAUUUAAAGUUAGAGAGUUCUCUGUCACCGAUGCAGUUCCUUUUCCAAUAUCUCUGGUCUGGAACCACGACUCGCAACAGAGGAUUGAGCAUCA` has a bound/input enrichment of 0.132 ratio.
The bound/input enrichment of `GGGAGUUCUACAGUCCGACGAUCCCCUCCGCGGCGCUUUCUCCUCUUGGCGGGGUUGGGAGUCAUGUUUGGUUUUCUCAUUCUUGUUUUUGUUUUGUGUGGUGGGUUCACUGACCGGCGGUGUCCUCUGGCGGUCACCUCUUUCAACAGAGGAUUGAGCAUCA` is reported as 0.553 ratio.
`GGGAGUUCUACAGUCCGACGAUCUUAAUCCCCUUUACUGCUCCCCCACUUCUCAUGGUAAUAACAAAGUCUUAUAUCCCCGUCCUAGCUUUCACUCAGAUGGCUUAUGGAGCCGGUUUCCUAGCUUUCUUGGGAGGGAUCAGACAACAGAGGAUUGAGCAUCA` has a bound/input enrichment of 0.375 ratio.
For `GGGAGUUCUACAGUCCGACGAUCGGUUCCUUUGGGAGACUUCGACUUGUUGGCGACCUGAUGGCCAAAAGAAAGGAAGAAAAUUUUUCCUCUCCUAAAAAUGCCAAAAGGCCAAGACAAGAAGAAUUGGAGGAUUUUGAUAAACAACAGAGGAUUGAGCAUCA`, the bound/input enrichment was 0.171 ratio.
With `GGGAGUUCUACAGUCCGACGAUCUCAUCAAUUGCAACUUCUUCAGUGAAAGGUCUUUCAACUACAGGAAACUCGUCUCUUAAUAGUACAUCCAACACUAAAGUGUCAGCGAUACCUACCAAUAUGGCUGCCAAGAAAACAUCUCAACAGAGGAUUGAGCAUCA` the bound/input enrichment was 0.152 ratio.
